Experimental data of several laboratories.
A part holds a random share of what one study measured. Changes are numbered by the printed parent chain.

Block 1 — method: aptamer microarray, sandwich; molecule type: DNA with 2'F-ANA; medium: in vitro; concentration: 200 nM; together with: Cy3 exosite-II aptamer, 400 nM; reading: higher = stronger binding; sequence: GGTTGGTGTGGTTGG
Target: Prothrombin, mature alpha-thrombin (F2, Homo sapiens, UniProt P00734)
Notes: whole 15-mer aptamer, many near background
| Modification | mean fluorescence intensity [a.u.] |
| --- | --- |
| 2'F-ANA at 1 2 4 7 9 10 12 13 14 15 | 45 |
| 2'F-ANA at 1 2 3 7 9 15 | 260 |
| 2'F-ANA at 1 2 4 7 8 9 11 14 15 | 73.2 |
| 2'F-ANA at 5 6 7 9 10 11 13 15 | 48.1 |
| 2'F-ANA at 2 12 13 | 742 |
| 2'F-ANA at 3 5 7 9 15 | 128 |
| 2'F-ANA at 3 9 10 12 14 15 | 360 |
| 2'F-ANA at 1 2 4 6 9 10 12 13 15 | 64.7 |
| 2'F-ANA at 4 5 9 10 13 14 15 | 52 |
| 2'F-ANA at 1 2 3 4 6 8 9 10 12 13 | 57.6 |
| 2'F-ANA at 1 3 5 6 8 12 13 14 | 47.3 |
| 2'F-ANA at 1 4 7 9 15 | 133 |
| 2'F-ANA at 3 6 7 10 12 13 | 581 |
| 2'F-ANA at 1 5 9 10 12 | 46.4 |
| 2'F-ANA at 1 3 4 5 7 11 | 51.1 |
| 2'F-ANA at 3 4 5 6 9 10 13 14 | 54.9 |
| 2'F-ANA at 3 8 10 11 12 15 | 555 |
| 2'F-ANA at 2 3 4 5 6 7 | 92.2 |
| 2'F-ANA at 1 2 3 5 6 7 9 10 13 15 | 48.6 |
| 2'F-ANA at 1 5 6 8 10 11 12 13 | 46.6 |
| 2'F-ANA at 1 3 4 8 10 11 12 | 72 |
| 2'F-ANA at 1 2 3 4 5 6 8 9 12 13 14 | 48.8 |
| 2'F-ANA at 1 3 7 8 10 | 100 |
| 2'F-ANA at 1 2 3 5 8 12 14 | 52.4 |
| 2'F-ANA at 2 3 4 5 11 12 13 14 15 | 49.8 |

Block 2 — method: DHFR PCA, deep sequencing; medium: yeast; together with: (+)-ABA 17 µM; baseline: wild-type fitted maximum; reading: higher = stronger binding
Target: ABI1, truncated, D143A, DHFR fusion (Arabidopsis thaliana)
Notes: methotrexate growth selection, single substitutions
Parent: PYL1, truncated, DHFR fusion (Arabidopsis thaliana); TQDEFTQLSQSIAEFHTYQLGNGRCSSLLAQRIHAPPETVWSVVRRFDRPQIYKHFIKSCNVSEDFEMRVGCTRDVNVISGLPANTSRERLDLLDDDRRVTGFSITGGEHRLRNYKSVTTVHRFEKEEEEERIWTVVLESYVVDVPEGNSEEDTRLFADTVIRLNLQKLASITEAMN; partner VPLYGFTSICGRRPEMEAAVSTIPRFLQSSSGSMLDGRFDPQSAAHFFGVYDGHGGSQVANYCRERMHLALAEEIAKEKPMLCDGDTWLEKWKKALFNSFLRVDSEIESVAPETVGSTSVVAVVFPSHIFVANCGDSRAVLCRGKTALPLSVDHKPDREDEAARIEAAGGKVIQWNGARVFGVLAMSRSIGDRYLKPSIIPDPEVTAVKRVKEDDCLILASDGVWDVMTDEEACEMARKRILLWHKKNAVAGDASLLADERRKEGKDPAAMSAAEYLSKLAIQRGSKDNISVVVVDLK
| Variant | relative binding score [%] |
| --- | --- |
| L169P | -6.84 |
| L93C | 81.9 |
| R113H | 94.4 |
| L164I | 79.8 |
| L29P | 15.1 |
| L164W | 64.4 |
| I133G | 103 |
| R111Q | 24.2 |
| K126L | 87.5 |
| V143F | -7.06 |
| C25L | 43.1 |
| V43T | 48.6 |
| R132P | 89.6 |
| R45F | -19.2 |
| R98D | 29.3 |
| R32H | 80.1 |
| R45A | 24.5 |
| V161P | -15.1 |
| F47H | -8.78 |
| N61F | 86.7 |
| E38G | 60.4 |
| N177I | 86.8 |
| N61H | 88.1 |
| I162M | 9.7 |
| V76L | 73.8 |

Block 3 — method: RNA Bind-n-Seq; molecule type: RNA; medium: in vitro; concentration: 1 µM; notes: whole 134-nt RNA, ends assumed; together with: 150 mM KCl; baseline: input library; reading: higher = stronger binding
Target: Ras GTPase-activating protein-binding protein 1, RRM domain (G3BP1, Homo sapiens, UniProt Q13283)
Sequence of UniProt Q13283 (whole entry, looked up): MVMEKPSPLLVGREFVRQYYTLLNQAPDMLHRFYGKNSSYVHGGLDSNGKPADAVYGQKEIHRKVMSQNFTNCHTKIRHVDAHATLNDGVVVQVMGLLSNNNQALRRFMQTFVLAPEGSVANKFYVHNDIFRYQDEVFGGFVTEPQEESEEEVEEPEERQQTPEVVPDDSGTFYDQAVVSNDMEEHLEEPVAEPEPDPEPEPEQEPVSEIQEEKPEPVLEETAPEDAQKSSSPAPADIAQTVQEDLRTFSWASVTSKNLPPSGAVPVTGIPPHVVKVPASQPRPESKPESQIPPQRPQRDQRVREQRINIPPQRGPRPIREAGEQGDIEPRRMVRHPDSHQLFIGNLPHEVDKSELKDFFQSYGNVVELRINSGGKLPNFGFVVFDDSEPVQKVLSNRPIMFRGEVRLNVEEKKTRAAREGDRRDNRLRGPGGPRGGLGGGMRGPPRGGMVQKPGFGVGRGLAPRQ
All sequences stand within: GGGAGUUCUACAGUCCGACGAUC … UGGAAUUCUCGGGUGUCAAGG
| Sequence | log2 enrichment |
| --- | --- |
| GCAGGAAGUAAAAACAAAUGGAAAUGCUUCGGAUAGUGGCAGGGGUGGGGGUUGCAAAGGAAAGGGUGGGAUGGGAGUGGGUAAAGAGUU | 1.26 |
| CAAGUCCUGUGCUACACAUCGUAUGUACCGAAUCGGGCCCGGGCCCGGGCCCGGGAAAGUAUUAUGUUACGCCGUUCGGAUCUGCACUUC | -0.061 |
| AGUCCUGUGCUACACAUCGUAUGUACCGAAUCGGGAAAAAGGGUUUUUGGGAAAGGGAAAGUAUUAUGUUACGCCGUUCGGAUCUGCACU | 0.274 |
| GUCCUGUGCUACACAUCGUAUGUACCGAAUCAAACCCAAACCCCCAAAUUUUUUUAAAAAAGUAUUAUGUUACGCCGUUCGGAUCUGCAC | -0.482 |
| UGUGCUACACAUCGUAUGUACCGAAUCGGGGUUUUUUUGGGGUUUUUGGGGAAAAAAAGGGGAAAGUAUUAUGUUACGCCGUUCGGAUCU | 1.13 |
| UAGGGUUCAGGAUAAGUUUGAGGUGCUGAAUUACACAAGCAUUCCUAUCUUUCUCCCGGAAGUCACCAUUGGAGCUCAUCAGACUGACCG | -0.168 |
| AAUGUGUCCUCCCUGUCCAAAUUGGGAAUGACUUAAUGUCAAUUUGUUUGUUGGUUGUUUUAAUAAUACUUCCUUAUGUAGCCAUUAAGA | -0.191 |
| UGGCUUCCUUCUUUCUAUUCCCCGCCUGCCUUCCAUGGUAGAGGCCAGUGACUUUGAGAUUAAUGGACUGGACUUCAUGGUAAGACCCUC | -0.215 |

Block 4 — method: RNA Bind-n-Seq; molecule type: RNA; medium: in vitro; concentration: 365 nM; baseline: no-protein control; reading: higher = stronger binding
Target: RNA binding protein fox-1 homolog 2, RRM domain, GST-SBP tag (RBFOX2, Homo sapiens, UniProt O43251-10, residues 100-194)
Notes: natural RNA segment, single round, ends assumed
All sequences stand within: GGGAGUUCUACAGUCCGACGAUC … UGGAAUUCUCGGGUGCCAA
Construct (chain): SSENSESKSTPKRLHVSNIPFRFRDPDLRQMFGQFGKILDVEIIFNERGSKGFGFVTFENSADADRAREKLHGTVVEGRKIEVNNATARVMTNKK
| Sequence | RBNS enrichment (R) |
| --- | --- |
| GCAUCAUACUUCAUGAUGUCAGAGUGUCUUGUCACGGUUUGGACUUAACUUCCCUCUAUAGUCAGCAGAGGGGAUCCGAGGCCCAGUGCUGCCUGGAGAACUGAGAAUAG | 0.563 |
| GAGAGAAAGGGCCAAUCUGUAGGGGUAGCCCUGUCCAGGUAAAGUUGUUUUCAGCCUCAUGUCUACUGUUAGGUGAGGGAGUCACAGCCAGACAGAGAGUAUUGCUGGAG | 0.545 |
| UAUUAACUUAAAUAGCCAUUGAGGAGUUAGAAGAUGAAUUGUUCAUGAAGUCGGUGUUACAUAAAAGUAGGUGAUAUGUAAGUUUUCUGAUAACAAGGUUCUAAUAGUGU | 1.11 |
| UUCACUAUGUUGCCCAGGCUGAUCUCGAACUCCUAGGCUCAAGCAAUCCUCCCAAUAUGCUGGGAUUACAGGCAUGAGCCACCACCUGGCCCAAGCAAGAAAUUGACACU | 0.2 |
| CUGUUUUUAUUUUUCUUAGAAAUGAGAGACACUGGCAGUCAUAACUGUACUAGUUACUAUGAACAUGAAAAAAUAAUUAUCUUAGACUAUUUUAGAAGUAGGGUGUGAAC | 0.531 |
| GGGCAAUGCUUGAUCUUAUACAACACUUACACUCUAGAAUAUUUUGUACAUAUGUUUGUUCUUUUUUUUUUUUUUUUUGUACAGACUAUUUACUUGUUCAAAAAAAACAG | 1.08 |
| AGUGCGUUCUGUGAUCGCCAAGUUCAAAGCUGUGCACAUGUGGACACUCAAUAAAUGUUCAUUGGUGACGAGAAGCCUCCUGCGUGGUCUGCCCUGCACCUGCUCUCUCC | 1.26 |
| UACCUGCCUGGUGAGAACUCCUGCCCCUGCCUACAAAGGGUACACAACCUACCCAUCAUCCCUAGUGUGUCCCGUCUCCUCCUGCCACCUGUCUGUAUUAUUCUGACCCA | 1.06 |
| ACACCUGGGCUCCUCACUGGGGGAAACAAAAGCCUAUAAACCCCAGCAACAAAACCUAGUCCUCUUAGACGUUCUUGCGCUUUGAUUUUUUUAGGGCGUGUGCCCUGUUA | 0.476 |
| GCAAUGAGGUCGGGUUUUAUAUGCAACUUAUUGUAUCUGAAUUCCUGUAGCACACCUCAUAGGUAUGAUUUUUUUAAAUUAAAGAAUUCAGAAUAAACAUUUUUUGAUCC | 0.852 |
| GCUCUAGACAUGUCUCUUGGUGUGUGUUUUAUCUACUGGUGUUAUUCUAUAUGGUAGAAUUACCAAAAGCUAUUCAGAUUUCUUAAUAAAGGGCAAAUCAACCAAGCCUG | 0.369 |
| GCCCUAGUGCUUCCAUCUGAUGGGGUGACCACACCCCUCACAUUCCACAGGCCUGAUUUUUAUAAAAAACUACCAAUGCUGAUCAAUAAAGUGGGUUUUUUUUAUAGCUU | 0.339 |

Repeated from above (block 2):
| Variant | relative binding score [%] |
| --- | --- |
| R132P | 89.6 |
| R45F | -19.2 |
| R98D | 29.3 |
| R32H | 80.1 |
| R45A | 24.5 |
| V161P | -15.1 |
| F47H | -8.78 |
